Experimental data gathered from unrelated publications.
Lines come from different studies, so protocols differ. Several values in a cell are separate wells, animals, samples, runs or records.
Target: Phosphatidylinositol 4,5-bisphosphate 3-kinase catalytic subunit gamma isoform (PIK3CG, Homo sapiens, UniProt P48736)

COc1cc(Nc2nc(C)cc(-c3cnn4nc(OC)ccc34)n2)cc(C(F)(F)F)c1  remaining activity (inhibitor; 1 µM; reference: control): 93%
Cc1nc2c(F)cc(-c3nc(Nc4ccc(CNC(=O)CCCCCCC(=O)NO)cc4)ncc3F)cc2n1C(C)C  inhibition (enzyme activity, inhibitor; 1 µM): 38%
C=CC(=O)Nc1cccc(-c2cnc3[nH]cc(C(=O)NC(C)(C)C)c3n2)c1  inhibition (kinase activity; 0.1 µM): 8% and 20%
COc1c(Cl)cccc1Nc1c(-c2ccncc2C#C[C@@]2(C)CCCN2C(=O)/C=C/CN(C)C)[nH]c2c1C(=O)NCC2  remaining binding (cell-free assay, competition with immobilised ligand; 3 µM): 81%
C=CC(=O)N1Cc2nc(-c3cc(-c4cc(Cl)cnc4Cl)c(F)cc3F)n(-c3ccncn3)c2C1  inhibition (cell-free assay, inhibitor; 1 µM): -3.6%
CC(=O)N1c2ccc(-c3ccc(CNC(=O)c4cn5cc(-c6cnc(N)nc6)nc(N6CCOCC6)c5n4)cc3)cc2CC[C@@H]1C  remaining binding (KINOMEscan; 10 µM): 0.4%
Nc1ncc2c(n1)-c1c([nH]c3ccc(C4=CCOCC4)cc13)CCC2  remaining binding (binding, competition with immobilised ligand; 1 µM): 61%
C=C1CCCCCCCCCC(CO)C1=O (stereo not drawn)  remaining signal (cell-free assay; 10 µM): 75%
CNS(=O)(=O)Nc1nccc(Cc2c(C)c3ccc(Oc4ncccc4F)cc3oc2=O)c1F  remaining binding (binding, competition with immobilised ligand; 10 µM): 100%
CN1CC[C@@H](COc2cnc(C#N)cc2-c2ccn3nc(NC(=O)C4CC4)cc3c2)C1  inhibition (enzyme activity, inhibitor; 1 µM): -1%
CC(=O)c1cnc(N)nc1N1CC[C@H]1c1nn2ccc(Cl)c2c(=O)n1-c1ccccc1  target engagement (KiNativ; intact human PBMC; 0.001 µM, 1 h): -22.7%
CNC(=O)C1CCN(c2cc(C)c(F)cc2NC(=O)c2ccc(-c3cc(O)ccc3C)c(C)c2)CC1  remaining binding (binding, competition with immobilised ligand; 1 µM): 93%
CN1CCN(Cc2ccc(-c3ccc(CO[C@H]4CCC[C@@H]4NC(=O)c4cc(-c5cnn(C)c5)cnc4N)cc3)cc2)CC1  inhibition (enzyme activity, inhibitor; 0.1 µM): 11%
Cc1ccc(-c2c(/C=C(\C#N)C(=O)NC(C)C)n(CCCO)c3ncnc(N)c23)cc1  remaining binding (cell-free assay, competition with immobilised ligand; 1 µM): 92%
CN1CCN(Cc2ccc(NC(=O)c3cccc(C#Cc4cnc(N)c5ncccc45)c3)cc2C(F)(F)F)CC1  remaining binding (cell-free assay, competition with immobilised ligand; 0.5 µM): 100%

Excerpt of the above:
Cc1nc2c(F)cc(-c3nc(Nc4ccc(CNC(=O)CCCCCCC(=O)NO)cc4)ncc3F)cc2n1C(C)C  inhibition (enzyme activity, inhibitor; 1 µM): 38%
C=CC(=O)Nc1cccc(-c2cnc3[nH]cc(C(=O)NC(C)(C)C)c3n2)c1  inhibition (kinase activity; 0.1 µM): 8% and 20%
